# Measurements collected from several papers.
# Numbered parts are unrelated; each lists some results of a single study.

# Set 1 — method: protein binding microarray; molecule type: double-stranded DNA, one strand shown; sample: in vitro; tested at: not given; baseline: not given; direction: higher = stronger binding
# Target: Histone acetyltransferase KAT6A, winged helix 1, GST fusion (KAT6A, Homo sapiens, UniProt Q92794, residues 1-85)
# Setting: 8-mer, flanks averaged, mean of 2 arrays, mostly near background
# Target sequence (chain): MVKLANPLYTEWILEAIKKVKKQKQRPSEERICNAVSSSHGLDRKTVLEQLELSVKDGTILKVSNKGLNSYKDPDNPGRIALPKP
Oligonucleotide,E-score
ACGCAATA,0.172
AGTCGAGC,-0.113
CCAGGCGA,-0.201
CGACACTC,0.0785
CGTCAATA,0.136
ATAAACCG,0.104
GTCAAAGA,-0.215
GCGATGAA,0.125
ACAAAGCG,0.113
CTGGGACA,-0.105
ATATAGCG,0.172
ATACCAAT,-0.0726
CCTCGTGA,-0.173
CCCGAGCG,0.297
GCCGCGGA,0.418
AGGGGCGG,0.237
CGCATTAA,0.155
CCACACTA,-0.0558

# Set 2 — method: universal PBM; molecule type: double-stranded DNA, one strand shown; sample: in vitro; tested at: not given; direction: higher = stronger binding
# Target: Sal-like protein 4, full length isoform B (SALL4, Homo sapiens, UniProt Q9UJQ4-2, residues 1-616)
# Setting: 8-mer, flanks averaged, mean of replicates
Oligonucleotide,E-score
AGGTGTCC,-0.242
CTTATCCA,0.135
GTGTTAGA,0.102
AAGTGGTG,-0.0247
GTGAGGAA,-0.0764
AGCGGCGA,-0.172
CCGAAAGG,0.0311
CCATTAAC,0.277
GATTGGGA,-0.109
ACGTACGC,-0.0542
TCACGAAA,0.182
GTTAGCGA,0.125
AGTCCGCC,-0.208
CACTAAGG,-0.188
GCAAACGA,0.0783
CGTTTAGC,-0.0318
AAGGACTA,0.043
CAGTCTAG,-0.167
CACCTAAC,-0.0255
GGAGGCAA,-0.248
AAGTCGCG,-0.0226
CATCATCA,0.169
CACCGTGA,-0.171
ACCGCCAT,-0.106
AGTTGACC,-0.205

# Set 3 — method: RNA Bind-n-Seq; molecule type: RNA; sample: in vitro; tested at: 200 nM; setting: whole 134-nt RNA, ends assumed; together with: 150 mM LiCl; baseline: input library; direction: higher = stronger binding; each molecule: 7-deaza-guanosine replaces G
# Target: Fragile X messenger ribonucleoprotein 1, C-terminal low-complexity region (Fmr1, Mus musculus, UniProt P35922)
# All sequences stand within: GGGAGUUCUACAGUCCGACGAUC … UGGAAUUCUCGGGUGUCAAGG
Oligonucleotide,log2 enrichment
UCCUGUGCUACACAUCGUAUGUACCGAAUCGGCCCCCCGGGGCCCCCCGGCCCCCCGGGGAAAGUAUUAUGUUACGCCGUUCGGAUCUGC,-2.61
UCAAGUCCUGUGCUACACAUCGUAUGUACCGAAUCGGUGGAAAAAGGAAAAAGGAAAGUAUUAUGUUACGCCGUUCGGAUCUGCACUUCC,-1.13
UAACUUUAGAGGAGGAUCUGAUGGAUAUGGCAGUGGACGUGGAUUUGGGGAUGGCUAUAAUGGGUAUGGAGGAGGGCCUGGAGGUGGCAA,1.19
CACAGACAACACGCACCCACACAGACACAGAGGGAAGGGGUUGGGAUGGGGACAGGGUGCACAGCAGGGCGGGGAAGGACCCCAGCCCCU,1.97
CUGUGCUACACAUCGUAUGUACCGAAUCGGGCCCCCCCGGGCCCCCCCGGGGCCCCCCCGGGAAAGUAUUAUGUUACGCCGUUCGGAUCU,-0.94
GCAGGAAGUAAAAACAAAUGGAAAUGCUUCGGAUAGUGGCAGGGGUGGGGGUUGCUAAGGAAAGGGUGGGAUGGGAGUGGGUUAAGAGUU,1.67
CACAGACAACACGCACCCACACAGACACAGAGGGAAGGGGUUGGGAUGGGGACAGGGUGCACAGCAGAAAGGGGUAGGACCCCAGCCCCU,0.72
AAGUCCUGUGCUACACAUCGUAUGUACCGAAUCGGAAAAAGGAAAAAAAGGAAAGGAAAGUAUUAUGUUACGCCGUUCGGAUCUGCACUU,-1.55
UUCUCCUGCCCCGAAGCUCGCUGUGCGUGUGCGUGUGUGUGUCCCUCCGCCAACGCCGCCACCUCAGCCCGGCAAAUGAACUCCGUCCGA,1.65
UGGCCCUGGUGGCAUGCGGGGAGGAAGAGGUGGCCUCAUGGAUCGUGGUGGUCCCGGUGGAAUGUUCAGAGGUGGCCGUGGUGGUGACAG,-0.328
CUGUGCUACACAUCGUAUGUACCGAAUCGGAAAAAAAGGGGAAAAAAAGGGAAAAAAAGGGAAAGUAUUAUGUUACGCCGUUCGGAUCUG,-0.305

# Set 4 — method: protein-binding microarray; molecule type: double-stranded DNA, one strand shown; sample: in vitro; tested at: 250 nM; setting: 60-bp whole probe; together with: salmon DNA 0.4 mg/ml; baseline: random background probes; direction: higher = stronger binding; all sequences stand within: GCCTAGCAC … GTCTTGATTCGCTTGACGCTGCTG
# Target: Interferon regulatory factor 7, full length, phosphomimetic (IRF7, Homo sapiens, UniProt Q92985, residues 1-503, S101K/S471D/S472D/S475D/S476D/S477D/S483D/S484D/S487D)
# Sequence of UniProt Q92985 (whole entry, unmodified, looked up): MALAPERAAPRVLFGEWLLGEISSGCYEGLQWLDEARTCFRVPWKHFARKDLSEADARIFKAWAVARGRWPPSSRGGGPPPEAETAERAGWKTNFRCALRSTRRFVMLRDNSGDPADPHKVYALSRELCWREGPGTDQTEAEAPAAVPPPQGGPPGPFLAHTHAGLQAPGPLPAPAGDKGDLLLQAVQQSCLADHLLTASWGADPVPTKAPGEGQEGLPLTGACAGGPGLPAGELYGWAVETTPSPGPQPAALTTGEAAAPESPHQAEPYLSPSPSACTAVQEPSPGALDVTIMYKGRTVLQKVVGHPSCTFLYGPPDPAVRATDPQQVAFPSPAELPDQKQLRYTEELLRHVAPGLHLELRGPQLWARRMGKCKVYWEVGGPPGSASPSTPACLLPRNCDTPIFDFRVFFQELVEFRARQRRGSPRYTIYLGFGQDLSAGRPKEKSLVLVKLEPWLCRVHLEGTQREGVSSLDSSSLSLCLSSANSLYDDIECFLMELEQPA
Oligonucleotide,log fluorescence [z-score]
TTACGTATCGGGTTTCGGTTAGTGCTA,6.32
ATCCATTTTGGTTTTCATTAGTGCTAG,1.65
GACGGTTTCCTACTGCTTACGTGCTAG,1.38
GACGGTATCGACTATGGGGACGTGCTA,-0.00467
TTAGGTATTGGGACTGGGTTAGTGCTA,-0.32
GACCGTATCCTTTTCCTGACGTGCTAG,1.33
TTAGGCATCCTTTTCCTTTAGTGCTAG,0.736
ATAGGTTTCTATATTTGCTTGTGCTAG,3.03
GAGGCTTTTTTTTTTTTTTTGTGCTAG,-0.361
TTAGGTCTCGGACTGGATTAGTGCTAG,0.265
GACGATATCAGACTTGAGACGTGCTAG,-0.498
GATGGTTTCGACACTGGGGACGTGCTA,4.03
GACGTTATCCTTATCCTGACGTGCTAG,0.615
TCACCCATGAGTCTCAAACTGTGCTAG,0.168
TTATATCTCAGACTGGATTAGTGCTAG,0.365
GACGGACTGGGGTTCCGGGACGTGCTA,-0.562
TCACTTTCTGTTTTCTCACTGTGCTAG,4.68
GACAGTTTCGGTCTCGGGACGTGCTAG,7.06
TTAGATTTCTGTATCGATTAGTGCTAG,0.754
TCAACACTCGGTTTCCAACTGTGCTAG,2.58
GACGATTTCAGTTCCGGGACGTGCTAG,0.81

# Set 5 — method: RNA Bind-n-Seq; molecule type: RNA; sample: in vitro; tested at: 365 nM; baseline: no-protein control; direction: higher = stronger binding
# Target: RNA binding protein fox-1 homolog 2, RRM domain, GST-SBP tag (RBFOX2, Homo sapiens, UniProt O43251-10, residues 100-194)
# Setting: natural RNA segment, single round, ends assumed
# All sequences stand within: GGGAGUUCUACAGUCCGACGAUC … UGGAAUUCUCGGGUGCCAA
# Construct (chain): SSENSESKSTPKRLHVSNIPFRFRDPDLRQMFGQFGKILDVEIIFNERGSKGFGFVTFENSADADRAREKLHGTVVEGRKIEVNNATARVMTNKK
Oligonucleotide,RBNS enrichment (R)
AAAGCAGUCAGUUUCAGAAGAUACUUUUUAUCAAAAAAGAUGGCAGGUUUAACAUUAUACCUUUUGGUUUUUGCCCAACAUUUGAUUUAAUCUAAAGCAAGAAUAUAAAA,0.484
CCUUUUUAGCAAGUAAACCUUGAACUUGGUCAGUGUGGAUAUUUCUGCUAGGCUGACGACUAAGCUGCUGGCCCUGCAGAGGGUCCAGUGUACACUCCACUCUGCUACAG,0.331
CUCUCUGUGCUCCGUGGAGGCCUCCGUGUGCCCUCGUUGCCGUGGGGACCCAGCUCCAUGCACGUCAACCCAGUCCCGCCCAGACUAGUGGACAGACCUGGUGUCACCAG,0.261
GCUGAAAAUCAAAGUAAAAAAUUAAAGCCCAUAAGGCCAGAAACUCCUUUUGCUGUCUUUCUCUAAAUAUGAUUACUUUAAAAUAAAAAAGUAACAAGGUGUCUUUUCCA,0.758
CUCCUCCCCAGAGCACCCCCUGCCAUCAGGGGGGUUGAAAUCCCUCUCCCCCAGGAGCCCUGCUGCUUUGCUUGGUGGUAGGGCAGGAGAGCAAACAAACAGUCAUGGUC,0.358
CCAGUCCAGGACUUUGGAACCCUGGUCUCAUUCACCCCAAAUAUACUUCUUGCUGAUCAUGCGUUGUGGGGGUGUGGGGGGACCCAUGCAGAGGAGGUUCUCUUCAUAAG,0.221
AUAGCCAAAAGUCCAUACACCCAUUGCCAGGCACUCCCAUAAGUCACAUGUGAAUUUUCUCUACACAUAGCAAACAUAACUUCAUUUGGCUCUAAGUGUCUGAGGAAUGG,0.548
AUUCCAGAAUCUCUGCUCUCAGAGUAGCUAAGAGAUUCGGUACAGAAGACGUUCUAUGGAGAAGCACAGGGGGCAUCUAAUGAGAUUGUCAGGCCCUUGGACAAGAUCCA,0.377
CAAGCGUGGACUCUUGUCUCACCUCAUCAAUUAUUCUGUGAUGUUGAAUCAGGAUUCUAAAGGCUAGCUUUUUUCAGUAGAAGACCCUUGUACCCACGAUUAGAAAAGAC,0.289
UUUAGUAGAGUAAUAGGUAGUAUCAGUUUGGAUUCUUAUUGUUAUCACCUAUGUACAAUGGAGAGGGGUUCUAAGCACAAAUCUGCUGCUCAUGUAACGGUGGUACAUAA,0.334
UCCUUUGUGUUCAACAGUUAAUCAAAACCAGAGAGUCUAGGGCAGCCUCUCUGAUGUUGUCAAUGAUGUAAAUUCAGUCCCUGGUUUUUAAUUUUCUGUCUGAUGUCACA,0.385
CUCUAUUUUGUGAUGACUCUGCUGUGACAUUAGGUUUGAAGCAUUUUUUUUUUCAAGCAGCAGUCCUAGGUAUUAACUGGAGCAUGUGUCAGAGUGUUGUUCCGUUAAUU,3.07

# For quick reference, copied from above (set 3):
Oligonucleotide,log2 enrichment
UGGCCCUGGUGGCAUGCGGGGAGGAAGAGGUGGCCUCAUGGAUCGUGGUGGUCCCGGUGGAAUGUUCAGAGGUGGCCGUGGUGGUGACAG,-0.328
GCAGGAAGUAAAAACAAAUGGAAAUGCUUCGGAUAGUGGCAGGGGUGGGGGUUGCUAAGGAAAGGGUGGGAUGGGAGUGGGUUAAGAGUU,1.67
CACAGACAACACGCACCCACACAGACACAGAGGGAAGGGGUUGGGAUGGGGACAGGGUGCACAGCAGGGCGGGGAAGGACCCCAGCCCCU,1.97
UCCUGUGCUACACAUCGUAUGUACCGAAUCGGCCCCCCGGGGCCCCCCGGCCCCCCGGGGAAAGUAUUAUGUUACGCCGUUCGGAUCUGC,-2.61
AAGUCCUGUGCUACACAUCGUAUGUACCGAAUCGGAAAAAGGAAAAAAAGGAAAGGAAAGUAUUAUGUUACGCCGUUCGGAUCUGCACUU,-1.55
UCAAGUCCUGUGCUACACAUCGUAUGUACCGAAUCGGUGGAAAAAGGAAAAAGGAAAGUAUUAUGUUACGCCGUUCGGAUCUGCACUUCC,-1.13
